{"data": "Results pooled from the literature", "note": "Lines come from different studies, so protocols differ. Values joined by “and” are separate records of one study, mostly repeats; a detail may differ. ± gives the spread as reported."}
{"Structure (SMILES)": "CCCCCCCCCCCC(=O)N[C@H](CO)C[C@@H](O)c1ccccc1", "target": "ceramide transfer protein (CERT), human", "test": "cellular CERT activity, HPLC-MS/MS lipidomics", "test system": "HeLa", "conditions": "1 µM, 24 h, normalised to cell number", "endpoint": "LacCer 24:1 amount", "value": "8740 pmol/sample and 7180 pmol/sample and 7710 pmol/sample"}
{"Structure (SMILES)": "O=C(N/N=C/c1cc[n+](Cc2ccccc2)c2ccccc12)c1cccc(C(=O)N/N=C/c2cc[n+](Cc3ccccc3)c3ccccc23)c1", "target": "myc22 MYC G4-DNA parallel", "test": "FRET melting", "conditions": "1 µM, K1 buffer, DNA 0.2 µM, together with: ds26 10 µM", "endpoint": "ΔTm", "value": "6.8 ± 0.5 °C"}
{"Structure (SMILES)": "CCCCCCc1cccc(C(O)CC(CO)NC(=O)CCCCCCCCCCNC(C)=O)c1 (stereo not drawn)", "target": "ceramide transfer protein (CERT), human", "test": "cellular CERT activity, HPLC-MS/MS lipidomics", "test system": "HeLa", "conditions": "1 µM, 24 h", "endpoint": "SM/ceramide ratio C16", "value": "29 ,1"}
{"Structure (SMILES)": "O=c1c(Oc2ccccc2)c(C(F)(F)F)oc2c(O)c(O)ccc12", "target": "ROC1-CUL1 with Cdc34~Ub", "test": "ubiquitin discharge, inhibitor", "endpoint": "Ub2 production", "value": "inhibited"}
{"Structure (SMILES)": "NCCOc1cc(NC(=O)c2cc(OCc3cn([C@H]4O[C@@H](CO)[C@H](O)[C@@H](O)[C@@H]4O)nn3)cc(C(=O)Nc3cc(OCCN)c4ccccc4n3)n2)nc2ccccc12", "target": "double-stranded DNA", "test": "FRET melting", "conditions": "1 µM, pH 7.4, 60 mM potassium, together with: oligonucleotide 200 nM", "endpoint": "delta Tm", "value": "0 ± 0.2 K"}
{"Structure (SMILES)": "O=C(N/N=C/c1ccc2c(ccc[n+]2Cc2ccccc2)c1)c1cncc(C(=O)N/N=C/c2ccc3c(ccc[n+]3Cc3ccccc3)c2)n1", "target": "myc22 MYC G4-DNA parallel", "test": "FRET melting", "conditions": "1 µM, K1 buffer, DNA 0.2 µM", "endpoint": "ΔTm", "value": "19.4 ± 0.4 °C"}
{"Structure (SMILES)": "CC(C)(O)c1ccn2c(-c3ccc(F)c(-c4ccc(F)cc4C#N)c3)cnc2c1F", "target": "GABAA receptor α1 G251D human", "test": "co-immunoprecipitation, measured: γ2 subunit", "test system": "HEK-293T", "conditions": "5 µM, 24 h, together with: hispidulin 10 µM", "endpoint": "protein interaction", "value": "increased"}
{"Structure (SMILES)": "O=C(N/N=C/c1ccc2c(ccc[n+]2Cc2ccccc2)c1)N/N=C/c1ccc2c(ccc[n+]2Cc2ccccc2)c1", "target": "myc22 MYC G4-DNA parallel", "test": "FRET melting", "conditions": "1 µM, K1 buffer, DNA 0.2 µM", "endpoint": "ΔTm", "value": "7.9 ± 0.3 °C"}
{"Structure (SMILES)": "Nc1ncc(-c2cc(-c3cnn(CC(F)(F)F)c3)ncc2F)nc1C(=O)NC1CNCC(F)C1 (stereo not drawn)", "target": "WNK3", "test": "KINOMEscan", "conditions": "1 µM", "how to read": "baseline: DMSO control", "endpoint": "remaining binding", "value": "73%"}
{"Structure (SMILES)": "C=CC(=O)N1[C@H](c2ccc3c(c2)OCO3)c2[nH]c3ccccc3c2C[C@@H]1C(=O)N1CCN(C)CC1", "target": "human cyclin E1 N112C-3xFLAG:CDK2", "test": "co-IP with TMT proteomics, measured: SRSF3", "conditions": "concentration not given, P84103", "how to read": "baseline: wild type DMSO", "endpoint": "relative co-enrichment", "value": "123%"}
{"Structure (SMILES)": "CCCCCCCCCCCC(=O)N[C@@H](CO)C[C@@H](O)c1cccc(CCCCCC)c1", "target": "ceramide transfer protein (CERT), human", "test": "cellular CERT activity, HPLC-MS/MS lipidomics", "test system": "HeLa", "conditions": "1 µM, 24 h", "endpoint": "SM/ceramide ratio C24", "value": "4 ,0"}
{"Structure (SMILES)": "O=C(N/N=C/c1ccc2c(ccc[n+]2Cc2ccccc2)c1)c1cc(C(=O)N/N=C/c2ccc3c(ccc[n+]3Cc3ccccc3)c2)ncn1", "target": "myc22 MYC G4-DNA parallel", "test": "FRET melting", "conditions": "1 µM, K1 buffer, DNA 0.2 µM", "endpoint": "ΔTm", "value": "7.4 ± 1 °C"}
{"Structure (SMILES)": "CC(=O)NCCCN(C)CCCNc1cccc2c1C(=O)c1cccc(NCCCN(C)CCCNC(C)=O)c1C2=O", "target": "double-stranded DNA", "test": "DNA thermal stabilisation, CD melting", "conditions": "4.5 µM, pH 7.4, together with: 1.5 µM DNA, 100 mM KCl", "endpoint": "ΔTm", "value": "< 0.5 °C"}
{"Structure (SMILES)": "Cn1ccc2cc(-n3c(=O)[nH]c4sc5c(c4c3=O)CCCC5)ccc21", "target": "rat central GABAA receptor", "test": "radioligand binding", "conditions": "10 µM, together with: muscimol", "endpoint": "inhibition", "value": "1%"}
{"Structure (SMILES)": "C[n+]1ccc(/C=N/NC(=O)N/N=C/c2cc[n+](C)c3ccccc23)c2ccccc21", "target": "myc22 MYC G4-DNA parallel", "test": "FRET melting", "conditions": "1 µM, K1 buffer, DNA 0.2 µM", "endpoint": "ΔTm", "value": "6.1 ± 0.4 °C"}
{"Structure (SMILES)": "CN1CCCNC(=O)c2cccc(c2)C(=O)NCCCN(C)CCCNc2cccc3c2C(=O)c2cccc(c2C3=O)NCCC1", "target": "double-stranded DNA", "test": "DNA thermal stabilisation, CD melting", "conditions": "4.5 µM, pH 7.4, together with: 1.5 µM DNA, 100 mM KCl", "endpoint": "ΔTm", "value": "< 0.5 °C"}
{"Structure (SMILES)": "O=C(N/N=C/c1ccc(C[n+]2ccccc2)cc1)C(=O)N/N=C/c1ccc(C[n+]2ccccc2)cc1", "target": "myc22 MYC G4-DNA parallel", "test": "FRET melting", "conditions": "1 µM, K1 buffer, DNA 0.2 µM", "endpoint": "ΔTm", "value": "3.7 ± 0.7 °C"}
{"Structure (SMILES)": "Fc1ccc(Nc2nc(NC3CCCCC3)c3cc(Br)ccc3n2)cc1F", "target": "β2AR/β1AR TM5 chimera", "test": "β-arrestin2 recruitment, antagonist, BRET", "conditions": "together with: isoprenaline 1 µM", "endpoint": "pIC50", "value": 6.9}
{"Structure (SMILES)": "O=C(CCCCCOc1ccc2ccccc2c1)N[C@@H](CO)C[C@@H](O)c1ccc(-c2ccccc2)cc1", "target": "ceramide transfer protein (CERT), human", "test": "cellular CERT activity, HPLC-MS/MS lipidomics", "test system": "HeLa", "conditions": "1 µM, 24 h", "endpoint": "SM/ceramide ratio Total", "value": "14 ,0"}
{"Structure (SMILES)": "C[n+]1cccc2cc(/C=N/NC(=O)c3ccc4ccc(C(=O)N/N=C/c5ccc6c(ccc[n+]6C)c5)nc4n3)ccc21", "target": "myc22 MYC G4-DNA parallel", "test": "FRET melting", "conditions": "1 µM, K1 buffer, DNA 0.2 µM, together with: ds26 10 µM", "endpoint": "ΔTm", "value": "16.1 ± 1.2 °C"}
{"Structure (SMILES)": "Fc1ccc(Nc2nc(NC3CCCCC3)c3ccccc3n2)cc1F", "target": "β2AR/β1AR TM5 chimera", "test": "β-arrestin2 recruitment, antagonist, BRET", "how to read": "baseline: isoprenaline maximal response", "endpoint": "maximal inhibition", "value": "5.7%"}
{"Structure (SMILES)": "CCC(=O)N(C)c1ccc(Cl)c(Cl)c1", "target": "GABA receptor, non-selective", "test": "radioligand binding", "conditions": "10 µM", "endpoint": "inhibition", "value": "< 10%"}
{"Structure (SMILES)": "C=CC(=O)Nc1cccc(Cn2ncc3cnc(Nc4cnn(CCOC)c4)nc32)c1", "target": "ARK5 human", "test": "binding, KINOMEscan", "conditions": "100 nM", "how to read": "lower = stronger binding", "endpoint": "percent of control", "value": "37%"}
{"Structure (SMILES)": "O=C(N/N=C/c1cc[n+](CC2CC2)c2ccccc12)c1ccc2ccc(C(=O)N/N=C/c3cc[n+](CC4CC4)c4ccccc34)nc2n1", "target": "myc22 MYC G4-DNA parallel", "test": "FRET melting", "conditions": "1 µM, K1 buffer, DNA 0.2 µM, together with: ds26 10 µM", "endpoint": "ΔTm", "value": "22.4 ± 0.9 °C"}
{"Structure (SMILES)": "COc1cc(Nc2nc(C)cc(-c3cnn4nc(OC)ccc34)n2)cc(C(F)(F)F)c1", "target": "FLT3 ITD mutant, human", "test": "KINOMEscan binding", "conditions": "1000 nM", "how to read": "baseline: control", "endpoint": "remaining binding", "value": "81%"}
{"Structure (SMILES)": "O=C(Nc1cc(OCCN2CCCC2)c2ccccc2n1)c1cccc(C(=O)Nc2cc(OCCN3CCCC3)c3ccccc3n2)n1", "target": "double-stranded DNA", "test": "FRET melting", "conditions": "1 µM, pH 7.4, 60 mM potassium, together with: oligonucleotide 200 nM", "endpoint": "delta Tm", "value": "0 ± 0.1 K"}
{"Structure (SMILES)": "c1ccc(-c2n[nH]cc2-c2ccnc3ccccc23)nc1", "target": "PKH3 (Candida albicans)", "test": "kinase binding, MIB/MS competition", "test system": "Candida albicans lysate", "conditions": "10 µM", "how to read": "baseline: DMSO", "endpoint": "log2 fold change", "value": -0.04}
